Measurements of several laboratories.
Protocols differ between the studies behind these lines. Values joined by “and” are separate records of one study, mostly repeats; a detail may differ. ± gives the spread as reported.
APEX1: DNA repair nuclease/redox regulator APEX1 (APEX1, Homo sapiens, UniProt P27695)
Sequence of UniProt P27695 (whole entry, looked up): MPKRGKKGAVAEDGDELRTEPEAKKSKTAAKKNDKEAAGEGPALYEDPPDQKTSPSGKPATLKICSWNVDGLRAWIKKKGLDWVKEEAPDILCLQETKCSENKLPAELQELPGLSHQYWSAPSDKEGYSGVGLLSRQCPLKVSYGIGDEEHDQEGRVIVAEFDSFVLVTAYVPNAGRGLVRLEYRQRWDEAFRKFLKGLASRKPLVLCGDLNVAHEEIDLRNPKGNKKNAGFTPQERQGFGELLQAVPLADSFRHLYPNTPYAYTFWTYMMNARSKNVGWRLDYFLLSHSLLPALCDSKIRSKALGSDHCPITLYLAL
Cnr1: Cannabinoid receptor 1 (Cnr1, Rattus norvegicus, UniProt P20272)
Sequence of UniProt P20272 (whole entry, looked up): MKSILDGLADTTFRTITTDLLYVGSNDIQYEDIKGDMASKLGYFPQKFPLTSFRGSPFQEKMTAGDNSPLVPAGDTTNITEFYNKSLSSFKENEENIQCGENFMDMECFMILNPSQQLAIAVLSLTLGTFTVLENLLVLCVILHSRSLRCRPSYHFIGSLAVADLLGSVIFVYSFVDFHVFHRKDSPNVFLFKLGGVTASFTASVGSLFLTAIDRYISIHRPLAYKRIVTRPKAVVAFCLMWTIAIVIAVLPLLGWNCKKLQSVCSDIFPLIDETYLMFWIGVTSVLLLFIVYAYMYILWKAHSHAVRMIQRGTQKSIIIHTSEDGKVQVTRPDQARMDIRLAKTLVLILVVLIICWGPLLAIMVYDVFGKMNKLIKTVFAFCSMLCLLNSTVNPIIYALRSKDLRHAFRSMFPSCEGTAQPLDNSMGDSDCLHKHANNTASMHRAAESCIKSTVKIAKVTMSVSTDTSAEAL
MSP: Male-specific submandibular salivary gland protein (MSP, Mesocricetus auratus, UniProt Q9QXU1)
Sequence of UniProt Q9QXU1 (whole entry, looked up): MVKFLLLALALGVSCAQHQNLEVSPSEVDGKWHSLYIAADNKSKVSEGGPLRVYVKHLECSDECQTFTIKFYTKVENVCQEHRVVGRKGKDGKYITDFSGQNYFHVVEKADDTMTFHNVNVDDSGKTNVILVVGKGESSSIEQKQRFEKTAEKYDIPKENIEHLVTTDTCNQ
P2RY1: P2Y purinoceptor 1 (P2RY1, Homo sapiens, UniProt P47900)
Sequence of UniProt P47900 (whole entry, looked up): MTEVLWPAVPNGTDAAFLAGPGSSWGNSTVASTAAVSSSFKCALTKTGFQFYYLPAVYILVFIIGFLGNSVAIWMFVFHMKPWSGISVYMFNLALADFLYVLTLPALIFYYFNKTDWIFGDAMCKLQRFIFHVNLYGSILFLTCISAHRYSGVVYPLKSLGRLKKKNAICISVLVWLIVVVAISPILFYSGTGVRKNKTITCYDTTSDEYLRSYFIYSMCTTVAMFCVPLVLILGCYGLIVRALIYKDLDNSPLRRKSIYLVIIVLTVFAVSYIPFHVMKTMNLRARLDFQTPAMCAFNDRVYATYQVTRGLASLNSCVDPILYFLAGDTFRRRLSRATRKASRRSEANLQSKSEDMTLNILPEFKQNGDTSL
Na(+)/H(+) exchange regulatory cofactor NHE-RF2 PDZ domain 2: Na(+)/H(+) exchange regulatory cofactor NHE-RF2, PDZ domain 2 (Homo sapiens, UniProt Q15599)
Sequence of UniProt Q15599 (whole entry, looked up): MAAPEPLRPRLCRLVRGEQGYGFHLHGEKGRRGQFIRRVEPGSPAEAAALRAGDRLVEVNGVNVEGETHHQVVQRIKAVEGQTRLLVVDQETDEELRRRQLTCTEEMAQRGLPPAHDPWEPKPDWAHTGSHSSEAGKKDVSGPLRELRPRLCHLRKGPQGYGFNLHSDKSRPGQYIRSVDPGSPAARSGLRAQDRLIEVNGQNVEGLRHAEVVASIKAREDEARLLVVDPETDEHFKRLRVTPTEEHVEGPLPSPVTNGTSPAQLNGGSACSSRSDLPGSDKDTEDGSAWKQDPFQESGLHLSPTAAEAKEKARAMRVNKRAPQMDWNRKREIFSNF
HRH1: Histamine H1 receptor (HRH1, Homo sapiens, UniProt P35367)
Sequence of UniProt P35367 (whole entry, looked up): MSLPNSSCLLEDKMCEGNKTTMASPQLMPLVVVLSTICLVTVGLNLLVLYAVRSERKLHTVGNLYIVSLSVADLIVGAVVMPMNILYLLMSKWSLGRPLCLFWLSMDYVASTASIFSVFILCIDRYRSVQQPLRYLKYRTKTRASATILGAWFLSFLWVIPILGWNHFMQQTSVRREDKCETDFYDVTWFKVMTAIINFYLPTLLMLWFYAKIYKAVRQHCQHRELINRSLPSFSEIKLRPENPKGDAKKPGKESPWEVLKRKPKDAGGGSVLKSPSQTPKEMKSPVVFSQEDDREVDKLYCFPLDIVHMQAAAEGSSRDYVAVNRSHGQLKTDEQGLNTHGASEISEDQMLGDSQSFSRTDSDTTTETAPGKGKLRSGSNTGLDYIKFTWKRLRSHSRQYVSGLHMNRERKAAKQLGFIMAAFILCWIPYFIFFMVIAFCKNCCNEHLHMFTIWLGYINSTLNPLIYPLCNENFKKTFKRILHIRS
DXR: 1-deoxy-D-xylulose 5-phosphate reductoisomerase, apicoplastic (DXR, Plasmodium falciparum, UniProt O96693)
Sequence of UniProt O96693 (whole entry, looked up): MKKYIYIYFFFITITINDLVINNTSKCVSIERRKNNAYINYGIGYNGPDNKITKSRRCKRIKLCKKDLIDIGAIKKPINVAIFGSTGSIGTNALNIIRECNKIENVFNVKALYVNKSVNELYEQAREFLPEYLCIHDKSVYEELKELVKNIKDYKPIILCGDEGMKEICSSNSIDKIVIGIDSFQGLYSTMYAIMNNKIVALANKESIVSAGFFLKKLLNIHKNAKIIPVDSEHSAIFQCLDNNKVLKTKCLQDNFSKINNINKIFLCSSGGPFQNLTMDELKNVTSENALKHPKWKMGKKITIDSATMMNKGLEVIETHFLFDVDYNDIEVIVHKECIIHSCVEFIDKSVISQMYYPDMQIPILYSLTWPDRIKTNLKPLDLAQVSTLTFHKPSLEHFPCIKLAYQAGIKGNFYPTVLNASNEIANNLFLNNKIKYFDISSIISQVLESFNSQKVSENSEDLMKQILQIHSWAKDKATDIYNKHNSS
Beta-lactamase ADC-7: Beta-lactamase ADC-7 (Acinetobacter baumannii, UniProt Q6DRA1)
Dual specificity protein phosphatase 5: Dual specificity protein phosphatase 5 (Homo sapiens, UniProt Q16690)
Sequence of UniProt Q16690 (whole entry, looked up): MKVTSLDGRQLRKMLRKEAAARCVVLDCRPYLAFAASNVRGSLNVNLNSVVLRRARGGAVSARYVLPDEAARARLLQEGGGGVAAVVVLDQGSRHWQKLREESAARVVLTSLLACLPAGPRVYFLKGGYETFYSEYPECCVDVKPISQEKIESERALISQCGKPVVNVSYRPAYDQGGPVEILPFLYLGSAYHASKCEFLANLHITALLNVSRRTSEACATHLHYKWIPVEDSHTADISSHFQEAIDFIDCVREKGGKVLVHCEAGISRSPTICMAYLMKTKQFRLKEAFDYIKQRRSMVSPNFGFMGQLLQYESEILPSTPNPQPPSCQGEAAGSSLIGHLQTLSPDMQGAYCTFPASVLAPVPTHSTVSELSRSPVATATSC
Drd3: D(3) dopamine receptor (Drd3, Rattus norvegicus, UniProt P19020)
Sequence of UniProt P19020 (whole entry, looked up): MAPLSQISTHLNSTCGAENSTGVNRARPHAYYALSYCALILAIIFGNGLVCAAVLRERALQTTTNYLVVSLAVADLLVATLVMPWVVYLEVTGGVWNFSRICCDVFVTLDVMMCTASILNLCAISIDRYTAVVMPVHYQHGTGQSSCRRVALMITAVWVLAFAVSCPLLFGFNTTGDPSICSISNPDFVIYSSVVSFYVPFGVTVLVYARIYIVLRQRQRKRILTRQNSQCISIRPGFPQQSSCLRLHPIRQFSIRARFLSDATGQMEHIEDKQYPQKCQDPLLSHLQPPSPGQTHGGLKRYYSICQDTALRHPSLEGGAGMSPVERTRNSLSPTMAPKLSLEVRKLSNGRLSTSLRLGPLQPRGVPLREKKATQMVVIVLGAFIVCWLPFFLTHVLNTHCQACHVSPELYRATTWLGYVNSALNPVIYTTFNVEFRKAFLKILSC
Sequence of UniProt Q12884 (whole entry, looked up): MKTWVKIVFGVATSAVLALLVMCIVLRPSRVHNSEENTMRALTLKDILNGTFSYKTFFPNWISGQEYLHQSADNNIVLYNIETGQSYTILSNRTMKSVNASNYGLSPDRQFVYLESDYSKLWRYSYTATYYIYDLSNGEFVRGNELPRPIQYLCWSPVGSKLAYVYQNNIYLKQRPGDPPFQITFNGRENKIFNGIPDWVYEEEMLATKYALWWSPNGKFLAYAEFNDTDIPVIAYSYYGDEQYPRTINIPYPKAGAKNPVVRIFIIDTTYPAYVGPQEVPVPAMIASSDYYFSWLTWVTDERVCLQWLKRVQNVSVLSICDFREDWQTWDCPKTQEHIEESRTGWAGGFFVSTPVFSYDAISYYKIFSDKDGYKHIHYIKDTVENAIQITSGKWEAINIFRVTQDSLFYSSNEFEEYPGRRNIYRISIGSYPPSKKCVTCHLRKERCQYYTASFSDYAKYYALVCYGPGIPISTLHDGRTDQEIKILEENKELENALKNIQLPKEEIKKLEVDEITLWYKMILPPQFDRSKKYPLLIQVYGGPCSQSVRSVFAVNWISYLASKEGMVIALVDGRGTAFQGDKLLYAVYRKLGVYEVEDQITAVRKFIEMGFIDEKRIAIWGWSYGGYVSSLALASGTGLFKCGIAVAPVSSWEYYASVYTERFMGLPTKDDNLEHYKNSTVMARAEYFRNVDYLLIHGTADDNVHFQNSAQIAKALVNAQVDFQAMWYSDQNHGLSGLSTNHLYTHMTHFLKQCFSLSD
Sequence of UniProt P21462 (whole entry, looked up): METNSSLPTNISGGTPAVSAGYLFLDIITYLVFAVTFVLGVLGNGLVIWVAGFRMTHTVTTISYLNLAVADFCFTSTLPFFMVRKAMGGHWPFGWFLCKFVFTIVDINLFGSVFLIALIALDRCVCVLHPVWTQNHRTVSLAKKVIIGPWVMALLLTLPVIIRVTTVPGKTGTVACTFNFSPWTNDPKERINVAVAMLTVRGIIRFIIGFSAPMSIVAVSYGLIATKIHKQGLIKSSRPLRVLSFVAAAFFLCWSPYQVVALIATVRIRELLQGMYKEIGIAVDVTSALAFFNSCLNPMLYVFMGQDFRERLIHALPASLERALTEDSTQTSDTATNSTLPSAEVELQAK
Sequence of UniProt Q60492 (whole entry, looked up): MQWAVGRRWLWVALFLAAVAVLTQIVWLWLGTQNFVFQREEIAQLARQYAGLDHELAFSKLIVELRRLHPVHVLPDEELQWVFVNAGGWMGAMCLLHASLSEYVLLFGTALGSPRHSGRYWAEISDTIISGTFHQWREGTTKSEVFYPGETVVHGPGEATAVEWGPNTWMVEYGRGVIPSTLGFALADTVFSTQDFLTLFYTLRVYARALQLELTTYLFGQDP

`Cc1cc(N/N=C/c2ccc3c(c2)OCO3)c2cc3c(cc2n1)OCO3` gave a Ki of 0.19 µM (APEX1; enzyme activity, inhibitor).
With `CCCCCCOc1nc(C(F)(F)F)ccc1CNC(=O)[C@H](C)c1ccc(NS(C)(=O)=O)c(F)c1` the Ki was 1 to 10 µM (Transient receptor potential cation channel subfamily V member 1 (TRPV1, Homo sapiens, UniProt Q8NER1); calcium influx, antagonist, FLIPR; CHO cells expressing human TRPV1; together with: capsaicin).
With `Cc1c(C(=O)NCc2ccccc2/N=N/c2ccccc2)nn(-c2ccc(Cl)cc2Cl)c1-c1ccc(Cl)cc1` the Ki was 0.224 ± 0.148 µM (Cnr1; radioligand binding; rat brain membranes; trans isomer, 454 nm light, together with: [3H]CP55940 0.6 nM).
`Nc1ncnc2c1ncn2[C@@H]1O[C@H](COP(=O)(O)O)[C@@H](OP(=O)(O)O)[C@H]1O` gave a Ki of 3.8 µM (Protein-tyrosine sulfotransferase 2 (Homo sapiens, UniProt O60704); enzyme activity, inhibitor; pH 7.5).
`Cc1c(/N=N/c2ccccc2)nn(-c2ccc(Cl)cc2Cl)c1-c1ccc(Cl)cc1` has a Ki of 0.538 ± 0.066 µM (Cnr1; radioligand binding; rat brain membranes; trans isomer, 454 nm light, together with: [3H]CP55940 0.6 nM).
For `C=CC(C)CCCC(C)(C)O` (centres unmarked), the Ki was 2.1 µM (MSP; binding, fluorescence displacement; together with: 1-AMA 2 µM).
`CNc1nc(C#CCCCCC(=O)OC)nc2c1ncn2[C@H]1C[C@H](OP(=O)(O)O)[C@]2(COP(=O)(O)O)C[C@H]12` has a Ki of 0.649 µM (P2RY1; ligand displacement, radioligand; cell membranes).
`COc1cccc(/C=N/Nc2cc(C)nc3cc4c(cc23)OCO4)c1` gave a Ki of 0.22 µM (APEX1; enzyme activity, inhibitor).
`CNc1nc(C#CCCCCC(=O)O)nc2c1ncn2[C@H]1C[C@H](OP(=O)(O)O)[C@]2(COP(=O)(O)O)C[C@H]12` gave a Ki of 0.35 µM (P2RY1; ligand displacement, radioligand; cell membranes).
The Ki of `CSCC[C@H](NC(=O)[C@@H](N)CC(C)C)C(=O)N[C@@H](CC(=O)O)C(=O)N[C@@H](CO)C(=O)N[C@H](C(=O)N[C@@H](CC(C)C)C(=O)O)[C@@H](C)O` is reported as 28.4 ± 1.8 µM (Na(+)/H(+) exchange regulatory cofactor NHE-RF2 PDZ domain 2; binding, fluorescence polarization competition; together with: FITC-FD2 8-mer reporter).
`CCCN(CC[C@]1(O)C[C@H](NC(=O)c2cccc(Cl)c2)C1)[C@H]1CCc2nc(N)sc2C1` (relative stereo) has a Ki of 28.7 ± 2.64 µM (dopamine D1-like receptor, rat; radioligand binding; rat striatal membranes; together with: [3H]SCH23390).
With `N=C(N)NCCCCNC(=N)NCCCc1c[nH]cn1` the Ki was over 31.6 µM (HRH1; ligand displacement, radioligand; cell membranes).
For `CCCN(CCC1(O)CC(NC(=O)c2ccc(-c3noc(C)n3)cc2)C1)[C@H]1CCc2nc(N)sc2C1` (stereo in doubt), the Ki was 19.2 ± 2.55 µM (dopamine D1-like receptor, rat; radioligand binding; rat striatal membranes; together with: [3H]SCH23390).
`O=C(O)c1cc(O)c(O)c(O)c1` has a Ki of 110 µM (dextransucrase Streptococcus mutans; enzyme activity, inhibitor; pH 6.0, 37 °C, mixed inhibition, together with: sucrose 2 to 40 mM).
`CC1(CCN2CCc3ccccc3C2)Cc2cc(Cl)ccc2C1=O` (centres unmarked) has a Ki of 0.174 µM (D(3) dopamine receptor (DRD3, Homo sapiens, UniProt P35462); binding, radioligand binding; together with: [3H]N-methylspiperone).
`O=C(CCCc1ccccc1)N(O)C/C=C/P(=O)(O)O` gave a Ki of 0.162 µM (DXR; inhibitor, Lineweaver-Burk plot; together with: DXP varied, NADPH 150 µM).
`N=C(N)NCCCCCCCCNC(=N)NCCCc1c[nH]cn1` gave a Ki of over 3.16 µM (HRH1; ligand displacement, radioligand; cell membranes).
The Ki of `O=C(Cc1cccs1)N[C@@H](Cc1cccc(C(=O)O)c1)B(O)O` is reported as 0.053 ± 0.004 µM (Beta-lactamase ADC-7; inhibitor; 5 min preincubation, pH 7.4, room temperature, together with: nitrocefin).
`COc1cccc(OC)c1-c1cc(C(=O)N[C@H](C(=O)O)C2CCCCC2)nn1-c1ccc(F)cc1` has a Ki of 5.2 µM (Apelin receptor (APLNR, Homo sapiens, UniProt P35414); ligand displacement, radioligand; cell membranes).
The Ki of `COc1ccccc1NC(=O)Cn1cc(CSc2nc3ccccc3c3nc4ccccc4n23)nn1` is reported as 12 µM (alpha-glucosidase (Saccharomyces cerevisiae); inhibitor, secondary plot).
The Ki of `O=C(O)C(Cc1c[nH]nn1)[C@@H]1CCN[C@H]1C(=O)O` (mixture of isomers) is reported as over 100 µM (NMDA receptor, rat; binding; cortical synaptosomes; together with: [3H]-CGP 39653).
For `Cc1cc[nH]n1`, the Ki was 21 µM (CYP2E1 (Oryctolagus cuniculus, UniProt P08682); 4-nitrophenol oxidation; reconstituted with CPR-K56Q and cytochrome b5; pH 7.4, 37 °C, together with: 4-nitrophenol).
`CCCN(CC[C@]1(O)C[C@@H](NS(=O)(=O)c2cccc(Cl)c2)C1)[C@H]1CCc2nc(N)sc2C1` (relative stereo) gave a Ki of 68 ± 2.3 µM (dopamine D1-like receptor, rat; radioligand binding; rat striatal membranes; together with: [3H]SCH23390).
With `O=C(O)CCC(C(=O)O)[C@@H]1CCN[C@H]1C(=O)O` (relative stereo) the Ki was 53 µM (NMDA receptor, rat; binding; cortical synaptosomes; together with: [3H]-CGP 39653).
The Ki of `CCCN(CCC1(O)CC(NS(=O)(=O)c2ccc(Cl)cc2)C1)[C@H]1CCc2nc(N)sc2C1` (stereo in doubt) is reported as 45.9 ± 2.49 µM (dopamine D1-like receptor, rat; radioligand binding; rat striatal membranes; together with: [3H]SCH23390).
The Ki of `CCCN(Cc1cccc([N+](=O)[O-])c1)C(=O)CCc1ccc(F)cc1` is reported as over 100 µM (Sigma non-opioid intracellular receptor 1 (SIGMAR1, Cavia porcellus, UniProt Q60492); binding; guinea pig liver membranes; together with: [3H]-(+)-pentazocine 10 nM).
`CCCCCCC(C)=O` gave a Ki of 1.48 µM (MSP; binding, fluorescence displacement; together with: 1-AMA 2 µM).
`COc1cc(O)cc2ccc3cccc(O)c3c12` has a Ki of 31.8 µM (alpha-glucosidase (Saccharomyces cerevisiae); inhibitor, Lineweaver-Burk secondary plot).
The Ki of `CCCCCCCCOP(=O)(O)C(C)=O` is reported as 57 ± 5 µM (Pyruvate dehydrogenase E1 (Sus scrofa, UniProt F1SGH5+P29804); enzyme activity, inhibitor, NADH formation; together with: pyruvate, competitive).
With `O=C(O)C(CCCO)[C@@H]1CCN[C@H]1C(=O)O` (relative stereo) the Ki was over 100 µM (NMDA receptor, rat; binding; cortical synaptosomes; together with: [3H]-CGP 39653).
For `CCCN(CCC1(O)CC(NS(=O)(=O)c2ccc(F)c(F)c2)C1)[C@H]1CCc2nc(N)sc2C1` (stereo in doubt), the Ki was 76 ± 6.81 µM (dopamine D1-like receptor, rat; radioligand binding; rat striatal membranes; together with: [3H]SCH23390).
The Ki of `CCCCCCCCCC=O` is reported as 0.18 µM (MSP; binding, fluorescence displacement; together with: 1-AMA 2 µM).
For `NC(=O)NCCCc1c[nH]cn1`, the Ki was over 10 µM (HRH1; ligand displacement, radioligand; cell membranes).
The Ki of `CCCN1C(=O)C(O)=C(C(=O)c2ccccc2)C1c1cc(OC)ccc1OC` (centres unmarked) is reported as 1 µM and < 2 µM (fMet-Leu-Phe receptor (FPR1, Homo sapiens, UniProt P21462); ligand displacement in cells).
For `O=C1OC2(c3ccccc31)c1cc(I)c(O)c(I)c1Oc1c2cc(I)c(O)c1I`, the Ki was 10.9 µM (Dual specificity protein phosphatase 5; enzyme activity, inhibitor, absorbance).
With `CCCN(CCC1(O)CC(NC(=O)c2ccccc2Cl)C1)[C@H]1CCc2nc(N)sc2C1` (stereo in doubt) the Ki was 49.7 ± 2.81 µM (dopamine D1-like receptor, rat; radioligand binding; rat striatal membranes; together with: [3H]SCH23390).
For `Cc1nc(N)sc1CCCNC(=N)NCCCCCCCCNC(=N)N`, the Ki was 1.78 µM (HRH1; ligand displacement, radioligand; cell membranes).
With `O=C(O)c1c(Cl)c(Cl)c(Cl)c(Cl)c1-c1c2cc(I)c(=O)c(I)c-2oc2c(I)c(O)c(I)cc12` the Ki was 2.27 ± 0.14 µM (Dual specificity protein phosphatase 5; enzyme activity, noncompetitive inhibitor; 15 min, dark).
For `CCCCCCCCCCCO`, the Ki was 0.36 µM (MSP; binding, fluorescence displacement; together with: 1-AMA 2 µM).
With `NC(CC(=O)O)C(=O)NC(CC(=O)O)C(=O)NC(CS)C(=O)NC(CCCCNC(=O)CCCCCCC(=O)NCCCCC(NC(=O)NC(CCC(=O)O)C(=O)O)C(=O)O)C(=O)O` (centres unmarked) the Ki was 0.00273 µM (Glutamate carboxypeptidase 2 (FOLH1, Homo sapiens, UniProt Q04609); enzyme activity, inhibitor, fluorescence; lysate).
The Ki of `CC(C)[C@H](NC(=O)[C@H](CCC(N)=O)NC(=O)[C@H](CCC(=O)O)NC(=O)[C@H](CCC(N)=O)NC(=O)[C@H](CC(N)=O)NC(=O)[C@@H]1CCCCN1C(=O)CNC(=O)COCCOCCNC(=O)[C@H](CCCNC(=N)N)NC(=O)[C@@H](N)Cc1ccccc1)C(=O)O` is reported as 14 µM and 14.8 µM (Prolyl endopeptidase FAP (FAP, Homo sapiens, UniProt Q12884); enzyme activity, inhibitor, fluorescence; pH 7.5).
The Ki of `CSC(=N)NCCCc1c[nH]cn1` is reported as over 100 µM (HRH1; ligand displacement, radioligand; cell membranes).
`CCCN(CCC1(O)CC(NS(=O)(=O)c2cccc(OC)c2)C1)[C@H]1CCc2nc(N)sc2C1` (stereo in doubt) has a Ki of 0.0016 µM (Drd3; ligand displacement, radioligand; cell membranes).
The Ki of `CC(=O)N(CCCP(=O)(O)O)OCc1ccc(-c2ccccc2)cc1` is reported as 0.24 µM (DXR; inhibitor, Lineweaver-Burk plot; together with: DXP varied, NADPH 150 µM).
For `CC(C)[C@H](NC(=O)[C@H](CCCNC(=N)N)NC(=O)[C@@H](NC(=O)[C@H](C)NC(=O)[C@H](Cc1ccccc1)NC(=O)[C@@H](N)CC(=O)O)[C@@H](C)O)C(=O)O`, the Ki was 69.3 ± 8.7 µM (Na(+)/H(+) exchange regulatory cofactor NHE-RF2 PDZ domain 2; fluorescence polarization competition; together with: FITC-labelled LPA2 peptide tracer).
With `N=C(N)NCCCCCCCCCCCCNC(=N)NCCCc1cnc(N)s1` the Ki was 0.525 µM (HRH1; ligand displacement, radioligand; cell membranes).
For `Nc1nc(Cl)nc2c1ncn2[C@@H]1O[C@H](CO)[C@@H](O)[C@@H]1F`, the Ki was 0.274 µM (Adenosine receptor A1 (ADORA1, Homo sapiens, UniProt P30542); ligand displacement, radioligand; cell membranes).
With `O=C(Cc1cccs1)N[C@@H](Cn1cc(-c2cccc(-c3nn[nH]n3)c2)nn1)B(O)O` the Ki was 0.099 ± 0.002 µM (Beta-lactamase ADC-7; inhibitor; 5 min preincubation, pH 7.4, room temperature, together with: nitrocefin).
For `CCCN(CCC1(O)CC(NS(=O)(=O)c2ccc(OC)cc2)C1)[C@H]1CCc2nc(N)sc2C1` (stereo in doubt), the Ki was 0.0016 µM (Drd3; ligand displacement, radioligand; cell membranes).
`O=C(NNC(=NS(=O)(=O)c1ccc(-n2nc(C(F)(F)F)cc2-c2cccs2)cc1)N1CCCC1)c1ccc(Cl)cc1` gave a Ki of 1.01 µM (Aminopeptidase N (ANPEP, Homo sapiens, UniProt P15144); enzyme activity, inhibitor; human placenta; 30 min preincubation, 37 °C, together with: L-Leu-AMC substrate).

Some of these lines once more:
For `CCCN(CCC1(O)CC(NS(=O)(=O)c2ccc(F)c(F)c2)C1)[C@H]1CCc2nc(N)sc2C1` (stereo in doubt), the Ki was 76 ± 6.81 µM (dopamine D1-like receptor, rat; radioligand binding; rat striatal membranes; together with: [3H]SCH23390).
The Ki of `CCCCCCCCCC=O` is reported as 0.18 µM (MSP; binding, fluorescence displacement; together with: 1-AMA 2 µM).
For `NC(=O)NCCCc1c[nH]cn1`, the Ki was over 10 µM (HRH1; ligand displacement, radioligand; cell membranes).
